# Experimental data collected from several papers.
# Compare with care: the assays were run in different laboratories. Several values in a cell are separate wells, animals, samples, runs or records. ± marks the error that the study gave.
Structure (SMILES),cell line,test,system,conditions,how to read,quantity,value
COc1ccc(-c2coc3cc(O)cc(O)c3c2=O)cc1,Caco-2 monolayers,,,"100 µg/mL, 2 h, apical to basolateral",,amount transported,16.1 ± 1.4%
COc1ccccc1CC(=N)N1C[C@@H]2C(=O)CCC(c3ccccc3)(c3ccccc3)[C@@H]2C1,PBMC,,,,,CC50,> 25 µM
C[C@@H]1O[C@@H](OC[C@H]2O[C@@H](Oc3c(-c4ccc(OCCO)c(OCCO)c4)oc4cc(OCCO)cc(O)c4c3=O)[C@H](O)[C@@H](O)[C@@H]2O)[C@H](O)[C@H](O)[C@H]1O,Caco-2 monolayers,basolateral to apical transport,,"100 µg/mL, 2 h",,amount transported,2.12 ± 0.6%
CS(=O)(=O)CCNCc1ccc(-c2ccc3ncnc(Nc4ccc(OCc5cccc(F)c5)c(Cl)c4)c3c2)o1,"MDCK-II cells, parental",bidirectional transwell permeability,,"1 µM, 1 h, pH 7.4",,Papp A-B,1.42 ± 0.53 ×10⁻⁶ cm/s
COc1cc(C2Oc3cc([C@H]4Oc5cc(O)cc(O)c5C(=O)[C@@H]4O)ccc3OC2CO)ccc1O (some centres unmarked),Caco-2 monolayers,basolateral to apical transport,,"100 µg/mL, 2 h",,amount transported,21.8 ± 7.3%
Cc1cc(C)c(CNC(=O)c2cc(Cl)c3c(c2C)O[C@@](C)([C@H]2CC[C@H](N(C)C)CC2)O3)c(=O)[nH]1,Caco-2,,,3 µM,,efflux ratio,48.6
CC(=O)Nc1c2sscc-2[nH]c1=O,HEK293T,cytotoxicity,,,,EC50,3 ± 0.3 µM
CC[C@]1(O)C[C@H]2CN(CCc3c([nH]c4ccccc34)[C@@](C(=O)OC)(c3cc4c(cc3OC)N(C=O)[C@H]3[C@@](O)(C(=O)OC)[C@H](OC(C)=O)[C@]5(CC)C=CCN6CC[C@]43[C@@H]65)C2)C1,rat DRG neurons (Sprague Dawley),,,"40 nM, 48 h",,neurite degeneration,88.7% and 78.1% and 79.8% and 74.8% and 87.9%
CC(C)C[C@H](NC(=O)CC[C@@H](C)[C@H]1CC[C@H]2[C@@H]3[C@H](O)C[C@@H]4C[C@H](O)CC[C@]4(C)[C@H]3CC[C@]12C)C(=O)O,HEK293T,LC-MS,serum-free conditioned medium,"100 µM, overnight",relative to: non-conditioned medium,recovery,101%
CC(=O)OC[C@H]1O[C@H]2OC(C)CCCCCC/C=C\CCCCCCCC(=O)O[C@H]3[C@H](O)[C@@H](O)[C@H](O[C@@H]2[C@@H](O)[C@@H]1O)O[C@@H]3COC(C)=O (some centres unmarked),sheep red blood cells,,,"1 h, 37 °C, 5% DMSO",,HC50,~125 µg/mL
Cc1ccc(S(=O)(=O)Oc2ccc(NC(=O)c3cnccn3)cc2)cc1,HEK293T,MTT,,"100 µM, 24 h",,viability,82.7 ± 1.06%
COc1ccc(-c2coc3cc(O)ccc3c2=O)cc1,Caco-2 monolayers,basolateral to apical transport,,"100 µg/mL, 2 h",,amount transported,2.32 ± 0.01%
Cc1nn(-c2nc3c(F)cc(F)cc3s2)c(O)c1C(c1ccc(C(F)(F)F)cc1)c1c(C)nn(-c2nc3c(F)cc(F)cc3s2)c1O,RAW-ISG,cell viability,,24 h,,CC50,59.1 µM
COc1cc(/C=C/C=C2\SC(=S)NC2=O)cc(OC)c1O,HEK-293T,CellTiter-Glo,,"10 µM, 24 h, unit not given",relative to: untreated,viability,1.02 and 1
C[C@@H]1O[C@@H](O[C@H]2[C@H](Oc3cc(O)c4c(c3)O[C@H](c3ccc(O)cc3)CC4=O)O[C@H](CO)[C@@H](O)[C@@H]2O)[C@H](O)[C@H](O)[C@H]1O,Caco-2 monolayers,basolateral to apical transport,,"100 µg/mL, 2 h",,amount transported,6.35 ± 0.5%
CCOc1cc2ncc(C#N)c(Nc3ccc(OCc4ccccn4)c(Cl)c3)c2cc1NC(=O)/C=C/CN(C)C,"MDCK-II cells, parental",bidirectional transwell permeability,,"1 µM, 1 h, pH 7.4",,Papp A-B,2.64 ± 0.49 ×10⁻⁶ cm/s
COc1ccc(NC(=S)N/N=C/c2cccc3cc4ccccc4nc23)cc1,HeLa,annexin V/PI,,"IC25, 48 h",,viable cells,77 ± 3.1%
Nc1ccn(C[C@@H](CO)OCP(=O)(O)O)c(=O)n1,HFF,,,7 days,,CC90,> 20 µM
CC(=O)OC[C@H]1O[C@@H]([S-])[C@H](OC(C)=O)[C@@H](OC(C)=O)[C@@H]1OC(C)=O.CCP(CC)CC.[Au+],L929,cytotoxicity,,5 days,,EC50,0.1 µM
COc1ccccc1CN[C@H]1CCCN[C@H]1c1ccccc1,PBMC,,,,,CC50,> 25 µM
O=C(CS)NCCCCCC(=O)Nc1cccc2cccnc12,Caco-2 monolayers,,,together with: quinidine 264 µM,relative to: B-A over A-B,efflux ratio,1.24
CC(=O)O[C@H]1C(=O)[C@@]2(C)[C@H]([C@H](OC(=O)c3ccccc3)[C@]3(O)C[C@H](OC(=O)[C@H](O)[C@@H](NC(=O)c4ccccc4)c4ccccc4)C(C)=C1C3(C)C)[C@]1(OC(C)=O)CO[C@@H]1C[C@@H]2O,CHP-212 resistant sublines (heterozygous USP7 V517F),cell viability,,0.04115 µM,,viability,45.1% and 47.4%
CC(C)=CCC[C@@]1(C)C(CC[C@H]2[C@]3(C)CC[C@H](O)C(C)(C)O[C@H]3CC[C@@]2(C)O)=C(C)CC[C@H]1O,ABCG2-482-R2 transfected HEK293,"cell viability, MTT",,72 h,,IC50,> 50 µM
CC[C@H](C)[C@H](NC(=O)[C@H](CCCCN)NC(=O)[C@H](CCC(N)=O)NC(=O)[C@@H](NC(=O)[C@@H](NC(=O)[C@H](CCCCN)NC(=O)[C@H](CCCNC(=N)N)NC(=O)[C@H](Cc1ccccc1)NC(=O)CN)[C@@H](C)CC)C(C)C)C(=O)N[C@@H](CCCNC(=N)N)C(=O)N[C@@H](CC(=O)O)C(=O)N[C@@H](Cc1ccccc1)C(=O)N[C@@H](CC(C)C)C(=O)N[C@@H](CCCNC(=N)N)C(=O)N[C@@H](CC(N)=O)C(=O)N[C@@H](CC(C)C)C(=O)N[C@H](C(N)=O)C(C)C,human erythrocytes,hemolysis,,"1 h, 37 °C",relative to: Triton X-100,HC50,80 µM
COc1ccc(CCC(=O)c2c(O)cc(O[C@@H]3O[C@H](CO)[C@@H](O)[C@H](O)[C@H]3O[C@@H]3O[C@@H](C)[C@H](O)[C@@H](O)[C@H]3O)cc2O)cc1O,Caco-2 monolayers,,,"100 µg/mL, 2 h",relative to: Papp(BL-AP) over Papp(AP-BL),efflux ratio,0.52 ± 0.2
Cc1noc(C)c1Cn1cc(N2C(=O)CN(Cc3cccc(O)c3)C2=O)cn1,human blood lymphocytes,,,"296.6 µg/mL, 3 h, with 2% S9",,aberrant cells without gaps,0.5%
C[C@H](CCC(=O)N[C@@H](Cc1ccc(O)cc1)C(=O)O)[C@H]1CC[C@H]2[C@@H]3[C@H](O)C[C@@H]4C[C@H](O)CC[C@]4(C)[C@H]3C[C@H](O)[C@]12C,HEK293T,LC-MS,serum-free conditioned medium,"100 µM, overnight",relative to: non-conditioned medium,recovery,99%
CCCC(CCC)NC(=O)c1ccc2c(c1)OCO2,CHO-WBL,,,"0.19 mg/mL, 3 h, with rat liver S9",,relative mitotic index,102%
Cc1cc(Nc2ncnc3ccc(NC4=NC(C)(C)CO4)cc23)ccc1Oc1ccn2ncnc2c1,"MDCK-II cells, parental",bidirectional transwell permeability,,"1 µM, 1 h, pH 7.4",,Papp A-B,7.45 ± 1.58 ×10⁻⁶ cm/s
CC(C)C[C@H](NC(=O)CC[C@@H](C)[C@H]1CC[C@H]2[C@@H]3[C@H](O)C[C@@H]4C[C@H](O)CC[C@]4(C)[C@H]3C[C@H](O)[C@]12C)C(=O)O,HEK293T,LC-MS,serum-free conditioned medium,"100 µM, overnight",relative to: non-conditioned medium,recovery,114%
CC(=O)Oc1ccccc1C(=O)CSc1nc(C)cc(C)c1C#N,MRC-5 SV2 lung fibroblasts,"cytotoxicity, resazurin",,"3 days, 5% heat-inactivated FCS",,CC50,12.3 µM
CC(=O)Nc1cccc(-n2c(=O)n(C3CC3)c(=O)c3c(Nc4ccc(I)cc4F)n(C)c(=O)c(C)c32)c1,LoVo (KRAS G13D),resazurin,,"1.56 nM, 72 h, unit not given",relative to: DMSO,viability,0.832 and 0.803
O=c1cc(-c2ccccc2)oc2cc(O)c(O)c(O)c12,Caco-2 monolayers,basolateral to apical transport,,"100 µg/mL, 2 h",,amount transported,2.18%
O=C(C[C@@H](C(F)F)n1ccc(F)n1)N1CCC(O)(Cn2cnc3c(cnn3-c3ccc(F)cc3)c2=O)CC1,CAPAN-1 parental,SRB,,"2.222 µM, 5 days",,viability,27.2% and 18.9%
COc1cccc(-c2n[nH]c(SCc3ccccn3)n2)c1OC,primary human lymphocytes,,,"0.5 mg/mL, 3 h",,structural aberrations per 100 cells,1
O=c1cc(-c2ccc(O)c(O)c2)oc2cc(O)cc(O)c12,Caco-2 monolayers,basolateral to apical transport,,"100 µg/mL, 2 h",,amount transported,3.34 ± 0.02%
C[C@H]1[C@H](OC(=O)CCC(=O)O)O[C@@H]2O[C@@]3(C)CC[C@H]4[C@H](C)CC[C@@H]1[C@@]24OO3,ML-2 cells,CellTox Green,,concentration not given,,time to onset of cytotoxicity,48 h
CC(C)OC(=O)[C@H](C)N[P@](=O)(OC[C@H]1O[C@@H](n2ccc(=O)[nH]c2=O)[C@](C)(F)[C@@H]1O)Oc1ccccc1,"cryopreserved human hepatocytes, donor LLT","CYP3A4 induction, refers to: CYP3A4 mRNA",,"concentration not given, 48 h",,slope of fold mRNA vs concentration,-0.000913

# Some of these lines once more:
Structure (SMILES),cell line,test,system,conditions,how to read,quantity,value
COc1cccc(-c2n[nH]c(SCc3ccccn3)n2)c1OC,primary human lymphocytes,,,"0.5 mg/mL, 3 h",,structural aberrations per 100 cells,1
CC(=O)Nc1cccc(-n2c(=O)n(C3CC3)c(=O)c3c(Nc4ccc(I)cc4F)n(C)c(=O)c(C)c32)c1,LoVo (KRAS G13D),resazurin,,"1.56 nM, 72 h, unit not given",relative to: DMSO,viability,0.832 and 0.803
Cc1cc(C)c(CNC(=O)c2cc(Cl)c3c(c2C)O[C@@](C)([C@H]2CC[C@H](N(C)C)CC2)O3)c(=O)[nH]1,Caco-2,,,3 µM,,efflux ratio,48.6
Cc1nn(-c2nc3c(F)cc(F)cc3s2)c(O)c1C(c1ccc(C(F)(F)F)cc1)c1c(C)nn(-c2nc3c(F)cc(F)cc3s2)c1O,RAW-ISG,cell viability,,24 h,,CC50,59.1 µM
